Values quoted from earlier work as cited in several papers.
Lines come from different studies, so protocols differ. ± marks the error that the study gave.

Compound | assay | test system | conditions | half-life [h]
COC(=O)C(N)Cc1ccc(OP2(=O)COC(Cn3ccc(N)nc3=O)CO2)cc1 (centres unmarked) | – | PBS | pH 6.5, Rp isomer | 6.42
O=C(NCCc1cccc(Cl)c1)Nc1ccc(Cl)cc1 | metabolic stability | rat liver microsomes | – | 0.248
CC(O)CN1C(C)CN(CCSC(c2ccc(F)cc2)c2ccc(F)cc2)CC1C (centres unmarked) | – | mouse liver microsomes | – | 0.333
CC(C)(C)NC(=O)[C@@H](N)Cc1ccc(OP2(=O)CO[C@@H](Cn3ccc(N)nc3=O)CO2)cc1 (some centres unmarked) | – | PBS | pH 6.5, Sp isomer | 3.5
CC(O)CN1CCN(CC(=O)[O-])CCN(CC(=O)[O-])CCN(CC(=O)[O-])CC1.[Gd+3] (centres unmarked) | – | – | 0.1 mmol/kg | 1.57 ± 0.08
CC(O)CN1CCN(CC[S+]([O-])C(c2ccc(F)cc2)c2ccc(F)cc2)CC1 (centres unmarked) | – | mouse liver microsomes | – | 1
NCCc1c[nH]c2ccc(O)cc12 | solution stability | – | – | 264
COC(CNC(=O)c1ccccc1OCC(=O)O)[CH2][Hg][OH] (centres unmarked) | – | plasma | – | < 1

Some of these lines once more:
Compound | assay | test system | conditions | half-life [h]
COC(=O)C(N)Cc1ccc(OP2(=O)COC(Cn3ccc(N)nc3=O)CO2)cc1 (centres unmarked) | – | PBS | pH 6.5, Rp isomer | 6.42
